# Measurements of several laboratories.
# Compare with care: the assays were run in different laboratories. ± marks the error that the study gave.
Compound,organism,assay,test system,setting,IC50
CC(C)[C@@H]1NC(=O)[C@H](CCCNC(=N)N)NC(=O)[C@H](Cc2ccc3ccccc3c2)NC(=O)[C@H](CCCNC(=N)N)NC(=O)[C@@H](N)CSSC[C@@H](C(N)=O)NC(=O)[C@H](CCCNC(=N)N)NC(=O)[C@H](Cc2ccc(O)cc2)NC(=O)[C@H](CCCNC(=N)N)NC(=O)[C@H](Cc2c[nH]cn2)NC(=O)[C@H](CC2CCCCC2)NC(=O)[C@H]2CCCN2C1=O,hepatitis C virus,"viral replication, Renilla luciferase reporter",Huh7.5,48 h,0.000192 µM
CC1N=C(CCCCCCCCCCC2=CC(CCCCCCCCCCC3=NC(C)C(O)CC3)C3CCCN3C2)CCC1O (stereo not drawn),Leishmania donovani,,amastigotes in THP-1 macrophages,,1.67 ± 0.23 µg/mL
N=C(N)NCCC[C@H](NC(=O)[C@H](CCCNC(=N)N)NC(=O)[C@H](CCCNC(=N)N)NC(=O)[C@H](CCC(N)=O)NC(=O)[C@H](CCCNC(=N)N)NC(=O)[C@H](CCCNC(=N)N)NC(=O)[C@H](CCCCN)NC(=O)[C@H](CCCCN)NC(=O)[C@H](CCCNC(=N)N)NC(=O)CNC(=O)[C@H](Cc1ccc(O)cc1)NC(=O)CNC(=O)CNC(=O)[C@H](CCCCN)NC(=O)[C@H](CCCNC(=N)N)NC(=O)[C@H](CCC(N)=O)NC(=O)[C@H](CS)NC(=O)[C@H](CCC(N)=O)NC(=O)CNC(=O)[C@H](CC(N)=O)NC(=O)[C@@H](N)CCCNC(=N)N)C(N)=O,Leishmania amazonensis,parasite growth,,"24 h, promastigote",~23 µM
CC(=O)[O-].CN(C)C=O.F[P-](F)(F)(F)(F)F.[Co+2].c1ccc(CN2CCN3CCCN(CC2)CCN(Cc2ccccc2)CC3)cc1,Leishmania donovani,,"THP-1-derived macrophages, intracellular amastigotes",,> 10 µM
CC=C1NC(=O)[C@H](Cc2ccccc2)NC(=O)[C@H](C(C)C)NC(=O)[C@H](Cc2c[nH]cn2)NC(=O)[C@H](CCC(N)=O)NC(=O)[C@H](Cc2c[nH]c3ccccc23)NC(=O)C2CSC[C@@H](C(=O)N[C@@H](CO)C(=O)O)NC(=O)[C@H](CSCC3NC(=O)[C@H]([C@@H](C)CC)NC(=O)C(NC(=O)[C@H](Cc4c[nH]cn4)NC(=O)[C@@H](NC(=O)[C@@H](NC(=O)CNC(=O)[C@H](CO)NC(=O)CNC(=O)CNC(=O)[C@@H](N)CCCCN)C(C)C)[C@@H](C)CC)C(C)SC[C@H](NC(=O)[C@H](CCC(=O)O)NC(=O)[C@H](Cc4c[nH]cn4)NC3=O)C(=O)N[C@@H](CCCNC(=N)N)C(=O)N[C@@H](CCSC)C(=O)N[C@@H](CC(N)=O)C(=O)N2)NC1=O (stereo partly drawn),Lactococcus lactis,cell growth,HP,,0.428 ± 0.021 µM
CC(=O)[O-].F[P-](F)(F)(F)(F)F.[Cu+2].c1ccc(CN2CCN3CCN(CC2)CCN(Cc2ccccc2)CC3)cc1,Leishmania donovani,"parasite growth, resazurin",,"72 h, amastigote",> 20 µM
CC(C)[C@H](NC(=O)[C@H](CCCNC(=N)N)NC(=O)[C@H](Cc1ccc2ccccc2c1)NC(=O)[C@H](CCCNC(=N)N)NC(=O)[C@@H](N)CS)C(=O)N1CCC[C@@H]1C(=O)N[C@@H](CC1CCCCC1)C(=O)N[C@@H](Cc1c[nH]cn1)C(=O)N[C@@H](CCCNC(=N)N)C(=O)N[C@@H](Cc1ccc(O)cc1)C(=O)N[C@@H](CCCNC(=N)N)C(=O)N[C@@H](CS)C(N)=O,hepatitis C virus,"viral replication, Renilla luciferase reporter",Huh7.5,48 h,0.003 µM
c1ccc(CN2CCNCCN(Cc3ccccc3)CCNCC2)cc1,Leishmania donovani,"parasite growth, resazurin",,"72 h, amastigote",> 25 µM
CC[C@H](C)[C@H](NC(=O)CNC(=O)[C@H](CO)NC(=O)[C@H](CC(C)C)NC(=O)[C@@H](N)Cc1ccccc1)C(=O)N[C@H](C(=O)NCC(=O)N[C@@H](CCSC)C(=O)N[C@@H](CC(C)C)C(=O)NCC(=O)N[C@@H](CCCCN)C(=O)N[C@@H](CC(C)C)C(=O)N[C@@H](Cc1ccccc1)C(N)=O)C(C)C,Leishmania amazonensis,"intracellular amastigote growth, Giemsa staining",infected macrophages,24 h,6.8 ± 2.82 µM

# Some of these lines once more:
Compound,organism,assay,test system,setting,IC50
CC[C@H](C)[C@H](NC(=O)CNC(=O)[C@H](CO)NC(=O)[C@H](CC(C)C)NC(=O)[C@@H](N)Cc1ccccc1)C(=O)N[C@H](C(=O)NCC(=O)N[C@@H](CCSC)C(=O)N[C@@H](CC(C)C)C(=O)NCC(=O)N[C@@H](CCCCN)C(=O)N[C@@H](CC(C)C)C(=O)N[C@@H](Cc1ccccc1)C(N)=O)C(C)C,Leishmania amazonensis,"intracellular amastigote growth, Giemsa staining",infected macrophages,24 h,6.8 ± 2.82 µM
